Published values collected from several papers.
Numbered parts are unrelated; each lists some results of a single study.

Series 1
Target: Ras GTPase-activating protein-binding protein 1, C-terminal RGG region (G3BP1, Homo sapiens, UniProt Q13283)
UniProt Q13283, sequence (whole entry, looked up): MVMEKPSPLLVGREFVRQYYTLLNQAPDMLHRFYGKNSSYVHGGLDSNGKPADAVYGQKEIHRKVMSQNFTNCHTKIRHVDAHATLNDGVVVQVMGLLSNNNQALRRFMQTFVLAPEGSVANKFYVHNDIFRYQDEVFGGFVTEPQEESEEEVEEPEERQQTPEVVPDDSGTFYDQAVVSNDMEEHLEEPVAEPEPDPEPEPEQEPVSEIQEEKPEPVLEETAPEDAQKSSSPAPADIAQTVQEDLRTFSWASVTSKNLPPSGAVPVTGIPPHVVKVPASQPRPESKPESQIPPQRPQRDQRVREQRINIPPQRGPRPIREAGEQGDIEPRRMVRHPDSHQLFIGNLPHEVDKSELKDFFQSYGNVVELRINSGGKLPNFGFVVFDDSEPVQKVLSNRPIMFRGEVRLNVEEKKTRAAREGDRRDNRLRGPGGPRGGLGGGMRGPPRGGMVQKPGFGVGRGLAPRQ
Method: RNA Bind-n-Seq
Form: RNA
Medium: in vitro
Concentration: 1 µM
Notes: whole 134-nt RNA, ends assumed
Added: 150 mM KCl
Baseline: input library
Reading: higher = stronger binding
With `GGGAGUUCUACAGUCCGACGAUCAGUCCUGUGCUACACAUCGUAUGUACCGAAUCGGGCCCCGGGCCCCGGGGCCCCGGGAAAGUAUUAUGUUACGCCGUUCGGAUCUGCACUUGGAAUUCUCGGGUGUCAAGG` the log2 enrichment was -0.333.
`GGGAGUUCUACAGUCCGACGAUCUUGUUUAUUCUGUGUCUUUUGCCUCCUUUCCUACAGAUGUCCGGCAGGAUAAUGCUGCUGGCAGAGCUGGCUCCAGUAGCCUUACACAGGUGGAAUUCUCGGGUGUCAAGG` has a log2 enrichment of 0.233.
With `GGGAGUUCUACAGUCCGACGAUCGUCCUGUGCUACACAUCGUAUGUACCGAAUCGGGUUUUUUUGGGAGGGUUUUUUUGGGAAAGUAUUAUGUUACGCCGUUCGGAUCUGCACUGGAAUUCUCGGGUGUCAAGG` the log2 enrichment was -0.227.

Series 2
Target: Interferon regulatory factor 7, full length, phosphomimetic (IRF7, Homo sapiens, UniProt Q92985, residues 1-503, S101K/S471D/S472D/S475D/S476D/S477D/S483D/S484D/S487D)
Method: protein-binding microarray
Form: double-stranded DNA, one strand shown
Medium: in vitro
Concentration: 250 nM
Notes: 60-bp whole probe
Added: salmon DNA 0.4 mg/ml
Baseline: random background probes
Reading: higher = stronger binding
Constant ends, left off below: GCCTAGCAC … GTCTTGATTCGCTTGACGCTGCTG
Residues (chain): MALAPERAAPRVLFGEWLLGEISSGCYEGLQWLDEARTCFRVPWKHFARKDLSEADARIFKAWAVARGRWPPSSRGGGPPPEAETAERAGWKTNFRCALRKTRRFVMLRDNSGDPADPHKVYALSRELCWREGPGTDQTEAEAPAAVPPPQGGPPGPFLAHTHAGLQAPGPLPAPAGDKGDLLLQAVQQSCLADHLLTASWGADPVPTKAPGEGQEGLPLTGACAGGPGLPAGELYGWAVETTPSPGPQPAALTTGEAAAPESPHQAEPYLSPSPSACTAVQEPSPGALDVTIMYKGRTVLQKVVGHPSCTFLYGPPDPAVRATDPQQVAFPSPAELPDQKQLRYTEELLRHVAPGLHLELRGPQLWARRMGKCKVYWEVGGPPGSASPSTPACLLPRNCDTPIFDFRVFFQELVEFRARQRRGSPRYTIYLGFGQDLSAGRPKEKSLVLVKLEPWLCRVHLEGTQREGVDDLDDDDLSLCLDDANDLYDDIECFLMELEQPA
`GAAGGTTTCGACACTGGGGACGTGCTA` has a log fluorescence of 3.19 z-score.
`TTAGGACTGCTTCTCCGTTAGTGCTAG` has a log fluorescence of 0.964 z-score.
With `TCACCTCCCTAATTCTGACTGTGCTAG` the log fluorescence was 0.197 z-score.
With `TTAGGTATCCTTCTCTTTTAGTGCTAG` the log fluorescence was 0.637 z-score.
With `TTAGTTATCCTTATCCTTTAGTGCTAG` the log fluorescence was 0.693 z-score.

Series 3
Target: Histone acetyltransferase KAT6A, both winged helices, GST fusion (KAT6A, Homo sapiens, UniProt Q92794, residues 1-181)
Method: protein binding microarray
Form: double-stranded DNA, one strand shown
Medium: in vitro
Concentration: not given
Notes: 8-mer, flanks averaged, mean of 2 arrays, mostly near background
Baseline: not given
Reading: higher = stronger binding
Residues (chain): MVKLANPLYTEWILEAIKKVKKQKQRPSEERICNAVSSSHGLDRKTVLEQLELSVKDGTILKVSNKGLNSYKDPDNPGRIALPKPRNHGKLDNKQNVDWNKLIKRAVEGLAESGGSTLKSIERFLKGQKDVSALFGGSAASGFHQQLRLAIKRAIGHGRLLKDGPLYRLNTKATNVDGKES
`AAAGTCTC` gave an E-score of -0.148.
For `CTCGTAAA`, the E-score was 0.0412.
With `CAGTCGAA` the E-score was 0.000655.
For `GACCCTAC`, the E-score was -0.148.

Other studies, line by line
`PhoQ, residues 284 288 289 292 302 303 GNNTDL` gave a fold induction of 2.92 (PhoP, residues 12 14 15 18 19 IFFTR (Escherichia coli, UniProt P23836); Sort-seq, item: YFP reporter; E. coli; PhoQ-PhoP variant library, added: 10 µM Mg2+; baseline: high Mg2+ state, higher = stronger signaling).

A few entries again (other studies, line by line):
`PhoQ, residues 284 288 289 292 302 303 GNNTDL` gave a fold induction of 2.92 (PhoP, residues 12 14 15 18 19 IFFTR (Escherichia coli, UniProt P23836); Sort-seq, item: YFP reporter; E. coli; PhoQ-PhoP variant library, added: 10 µM Mg2+; baseline: high Mg2+ state, higher = stronger signaling).
